# Assay results pooled from the literature.
# A part holds a random share of what one study measured. “And” joins repeats or separate records; there may be more than shown.
# Sequence of UniProt Q92633 (whole entry, looked up): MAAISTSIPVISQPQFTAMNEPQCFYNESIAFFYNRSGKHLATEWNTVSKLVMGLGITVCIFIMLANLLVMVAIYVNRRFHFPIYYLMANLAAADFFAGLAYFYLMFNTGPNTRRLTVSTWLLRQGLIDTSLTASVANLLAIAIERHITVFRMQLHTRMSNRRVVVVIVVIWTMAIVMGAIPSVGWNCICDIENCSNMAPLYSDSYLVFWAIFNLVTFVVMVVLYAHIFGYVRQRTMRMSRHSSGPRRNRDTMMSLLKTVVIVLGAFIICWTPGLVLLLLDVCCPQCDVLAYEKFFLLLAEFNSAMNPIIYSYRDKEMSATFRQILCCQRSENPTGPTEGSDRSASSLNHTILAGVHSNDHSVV
# Sequence of UniProt Q56UN5 (whole entry, looked up): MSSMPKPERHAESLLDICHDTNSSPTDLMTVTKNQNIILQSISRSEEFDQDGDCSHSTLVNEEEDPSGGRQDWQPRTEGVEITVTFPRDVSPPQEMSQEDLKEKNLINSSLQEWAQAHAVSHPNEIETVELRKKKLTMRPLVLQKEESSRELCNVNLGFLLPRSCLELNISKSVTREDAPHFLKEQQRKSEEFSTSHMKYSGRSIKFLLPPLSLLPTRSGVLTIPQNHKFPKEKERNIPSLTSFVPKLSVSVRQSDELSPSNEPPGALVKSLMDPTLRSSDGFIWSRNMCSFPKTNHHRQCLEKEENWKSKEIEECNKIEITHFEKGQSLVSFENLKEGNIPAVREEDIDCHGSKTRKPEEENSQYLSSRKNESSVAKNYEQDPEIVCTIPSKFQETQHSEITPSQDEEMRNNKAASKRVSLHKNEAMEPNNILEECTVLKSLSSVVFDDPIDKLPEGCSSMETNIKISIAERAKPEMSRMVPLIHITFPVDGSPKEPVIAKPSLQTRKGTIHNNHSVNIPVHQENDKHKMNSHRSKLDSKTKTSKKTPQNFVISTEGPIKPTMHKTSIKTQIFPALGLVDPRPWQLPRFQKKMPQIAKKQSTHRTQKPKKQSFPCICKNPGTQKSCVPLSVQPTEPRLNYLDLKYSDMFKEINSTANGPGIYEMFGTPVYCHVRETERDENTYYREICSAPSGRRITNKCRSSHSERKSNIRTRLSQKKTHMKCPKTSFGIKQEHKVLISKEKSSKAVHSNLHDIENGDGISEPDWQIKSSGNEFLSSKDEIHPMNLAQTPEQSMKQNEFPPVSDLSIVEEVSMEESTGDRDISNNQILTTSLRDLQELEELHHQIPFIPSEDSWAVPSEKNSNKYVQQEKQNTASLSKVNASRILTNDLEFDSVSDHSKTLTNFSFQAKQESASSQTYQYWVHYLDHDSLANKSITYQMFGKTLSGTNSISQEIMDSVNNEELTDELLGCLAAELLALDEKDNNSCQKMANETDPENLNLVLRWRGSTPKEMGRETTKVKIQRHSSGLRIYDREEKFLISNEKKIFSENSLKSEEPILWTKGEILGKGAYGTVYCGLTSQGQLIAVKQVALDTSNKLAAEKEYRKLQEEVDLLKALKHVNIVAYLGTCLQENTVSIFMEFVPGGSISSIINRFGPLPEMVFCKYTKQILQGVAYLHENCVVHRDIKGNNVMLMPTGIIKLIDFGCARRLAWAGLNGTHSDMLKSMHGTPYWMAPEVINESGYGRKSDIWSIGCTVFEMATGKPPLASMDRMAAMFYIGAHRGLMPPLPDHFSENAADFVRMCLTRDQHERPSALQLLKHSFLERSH
# Sequence of UniProt O75460 (whole entry, looked up): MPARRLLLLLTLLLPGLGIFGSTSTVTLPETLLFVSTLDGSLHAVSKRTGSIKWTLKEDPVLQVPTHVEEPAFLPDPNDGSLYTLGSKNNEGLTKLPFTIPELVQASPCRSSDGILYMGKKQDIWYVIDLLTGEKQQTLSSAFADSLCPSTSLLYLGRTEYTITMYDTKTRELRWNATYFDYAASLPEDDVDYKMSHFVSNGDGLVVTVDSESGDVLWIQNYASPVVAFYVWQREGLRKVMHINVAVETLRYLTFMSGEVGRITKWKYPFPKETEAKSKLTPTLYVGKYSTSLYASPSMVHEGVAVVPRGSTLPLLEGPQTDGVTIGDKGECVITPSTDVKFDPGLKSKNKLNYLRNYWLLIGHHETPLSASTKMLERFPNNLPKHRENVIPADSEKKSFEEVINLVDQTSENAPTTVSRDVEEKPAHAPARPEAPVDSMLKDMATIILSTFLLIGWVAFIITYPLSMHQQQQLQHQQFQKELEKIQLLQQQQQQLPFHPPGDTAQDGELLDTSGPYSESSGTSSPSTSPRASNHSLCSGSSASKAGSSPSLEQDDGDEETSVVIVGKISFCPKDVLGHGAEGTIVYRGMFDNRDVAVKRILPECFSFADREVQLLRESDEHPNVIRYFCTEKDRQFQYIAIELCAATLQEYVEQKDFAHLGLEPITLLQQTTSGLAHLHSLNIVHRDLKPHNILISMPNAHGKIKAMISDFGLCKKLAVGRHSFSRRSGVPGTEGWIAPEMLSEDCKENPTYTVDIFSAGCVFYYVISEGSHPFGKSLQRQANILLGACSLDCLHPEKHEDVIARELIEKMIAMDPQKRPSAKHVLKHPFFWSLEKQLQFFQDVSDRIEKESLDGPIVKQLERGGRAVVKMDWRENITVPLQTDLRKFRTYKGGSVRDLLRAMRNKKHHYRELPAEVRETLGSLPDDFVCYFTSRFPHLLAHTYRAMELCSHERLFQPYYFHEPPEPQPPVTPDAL
# Sequence of UniProt P25103 (whole entry, looked up): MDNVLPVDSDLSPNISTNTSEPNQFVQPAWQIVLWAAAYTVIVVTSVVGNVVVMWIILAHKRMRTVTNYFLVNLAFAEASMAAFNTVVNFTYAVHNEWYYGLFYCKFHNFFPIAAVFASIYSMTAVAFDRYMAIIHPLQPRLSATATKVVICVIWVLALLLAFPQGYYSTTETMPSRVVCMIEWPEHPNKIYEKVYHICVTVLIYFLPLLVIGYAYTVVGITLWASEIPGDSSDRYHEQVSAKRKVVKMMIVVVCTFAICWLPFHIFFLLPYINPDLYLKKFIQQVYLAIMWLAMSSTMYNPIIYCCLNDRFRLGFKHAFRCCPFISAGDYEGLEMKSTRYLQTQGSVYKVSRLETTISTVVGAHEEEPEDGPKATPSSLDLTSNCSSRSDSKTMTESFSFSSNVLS
# Sequence of UniProt P30550 (whole entry, looked up): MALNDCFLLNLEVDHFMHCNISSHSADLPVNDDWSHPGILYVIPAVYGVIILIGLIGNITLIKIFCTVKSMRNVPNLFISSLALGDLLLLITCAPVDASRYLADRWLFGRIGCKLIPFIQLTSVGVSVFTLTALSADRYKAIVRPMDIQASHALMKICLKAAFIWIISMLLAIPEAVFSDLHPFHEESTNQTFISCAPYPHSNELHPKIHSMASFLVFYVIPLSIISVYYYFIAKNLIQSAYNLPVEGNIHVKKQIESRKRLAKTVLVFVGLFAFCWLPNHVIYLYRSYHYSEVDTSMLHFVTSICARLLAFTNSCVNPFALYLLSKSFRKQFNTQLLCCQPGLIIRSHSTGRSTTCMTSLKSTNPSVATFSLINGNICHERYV
# Sequence of UniProt Q86YV6 (whole entry, looked up): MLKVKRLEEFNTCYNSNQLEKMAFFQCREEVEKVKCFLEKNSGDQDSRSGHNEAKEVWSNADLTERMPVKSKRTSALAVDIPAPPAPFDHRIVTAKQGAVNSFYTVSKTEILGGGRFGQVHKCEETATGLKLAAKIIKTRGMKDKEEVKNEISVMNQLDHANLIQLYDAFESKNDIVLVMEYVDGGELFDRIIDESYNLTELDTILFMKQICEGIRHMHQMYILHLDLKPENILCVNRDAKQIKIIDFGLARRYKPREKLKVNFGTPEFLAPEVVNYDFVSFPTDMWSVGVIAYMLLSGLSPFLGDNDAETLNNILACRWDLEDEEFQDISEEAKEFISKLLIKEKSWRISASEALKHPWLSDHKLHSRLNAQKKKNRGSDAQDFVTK
# Sequence of UniProt P08172 (whole entry, looked up): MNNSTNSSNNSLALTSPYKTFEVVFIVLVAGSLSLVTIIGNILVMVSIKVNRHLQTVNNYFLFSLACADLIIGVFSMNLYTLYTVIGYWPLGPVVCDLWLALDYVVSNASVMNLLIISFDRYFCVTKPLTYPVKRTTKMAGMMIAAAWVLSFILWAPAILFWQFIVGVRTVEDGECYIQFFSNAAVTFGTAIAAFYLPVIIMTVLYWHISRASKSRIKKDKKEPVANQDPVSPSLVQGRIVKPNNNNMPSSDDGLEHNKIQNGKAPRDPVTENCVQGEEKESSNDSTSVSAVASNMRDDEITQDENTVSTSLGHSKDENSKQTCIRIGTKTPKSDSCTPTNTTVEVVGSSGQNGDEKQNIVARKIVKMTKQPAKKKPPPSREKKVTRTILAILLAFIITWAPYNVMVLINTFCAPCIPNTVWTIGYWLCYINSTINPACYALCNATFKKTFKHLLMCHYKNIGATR

# Block 1
# Target: Calcium/calmodulin-dependent protein kinase type II subunit alpha (CAMK2A, Homo sapiens, UniProt Q9UQM7)
# Sequence of UniProt Q9UQM7 (whole entry, looked up): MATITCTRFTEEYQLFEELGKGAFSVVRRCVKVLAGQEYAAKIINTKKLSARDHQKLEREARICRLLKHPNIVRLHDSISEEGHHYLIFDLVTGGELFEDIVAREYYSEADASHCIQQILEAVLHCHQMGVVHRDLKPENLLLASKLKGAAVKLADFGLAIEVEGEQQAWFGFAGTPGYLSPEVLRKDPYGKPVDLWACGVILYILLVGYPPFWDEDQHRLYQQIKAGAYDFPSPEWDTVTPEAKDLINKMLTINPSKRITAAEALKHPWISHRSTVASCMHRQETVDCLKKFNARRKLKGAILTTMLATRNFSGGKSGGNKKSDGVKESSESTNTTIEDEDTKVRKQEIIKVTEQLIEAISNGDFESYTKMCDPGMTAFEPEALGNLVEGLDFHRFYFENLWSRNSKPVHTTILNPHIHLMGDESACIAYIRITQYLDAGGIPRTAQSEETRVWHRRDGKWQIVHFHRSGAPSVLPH
# Effect on: enzyme activity
# Action: inhibitor
# Tested at: 10 µM
SMILES,inhibition [%]
O=P(O)(O)OC(Cn1cncn1)(Cn1cncn1)c1ccc(F)cc1F,0
CN1C2=CC(=O)/C(=N\NC(N)=O)C=C2CC1S(=O)(=O)O (centres unmarked),-3
CCOC(=O)[C@H](CCc1ccccc1)N[C@H]1CCCN2CCC[C@@H](C(=O)O)N2C1=O,-5
C[C@H]1[C@H](C)CC[C@]2(C(=O)O)CC[C@]3(C)C(=CC[C@@H]4[C@@]5(C)C[C@@H](O)[C@H](O)[C@@](C)(CO)[C@@H]5[C@H](O)C[C@]43C)[C@H]12,-5
COc1ccc2ccc(=O)oc2c1CC(=O)C(C)C,-26
CC(C)=CCC[C@](C)(O)[C@H]1CC[C@]2(C)[C@@H]1[C@H](O)C[C@@H]1[C@@]3(C)CC[C@H](O)C(C)(C)[C@@H]3[C@@H](O[C@@H]3O[C@H](CO)[C@@H](O)[C@H](O)[C@H]3O[C@@H]3O[C@@H](C)[C@H](O)[C@@H](O)[C@H]3O)C[C@]12C,-31
C=C(C(=O)c1c(OC)cc2c(c1OC)OCO2)c1ccccc1O,-33
C=C(C)[C@H](CC=C(C)C)Cc1c(O)cc(O)c2c1O[C@H](c1ccc(O)cc1OC)CC2=O,-23
C[C@@H]1C(=O)O[C@H](C)[C@H]1C[C@@H](O)[C@](C)(O)[C@H]1CC[C@@]2(O)C3=CC(=O)[C@@H]4C[C@@H](O)[C@@H](O)C[C@]4(C)[C@H]3CC[C@]12C,42
COc1ccc(-c2cc(=O)c3ccccc3o2)cc1OC,-38

# Block 2
# Structure (SMILES): CC(C)CN(C)c1nc(N)c(C(=O)N=C(N)N)nc1Cl
# Effect on: β-arrestin recruitment
# Action: agonist
# Technique: PRESTO-Tango
# Tested at: 10 µM
# Reference: untreated
target,fold over basal
"CCR1 (Homo sapiens, UniProt P32246)",1.07
"TACR1 (Homo sapiens, UniProt P25103)",1.05 fold
"G-protein coupled receptor 12 (GPR12, Homo sapiens, UniProt P47775)",0.92
"LPAR1 (Homo sapiens, UniProt Q92633)",1.09
"Apelin receptor (APLNR, Homo sapiens, UniProt P35414)",0.98
"Adhesion G protein-coupled receptor F5 (ADGRF5, Homo sapiens, UniProt Q8IZF2)",0.95
"ADGRG6 (Homo sapiens, UniProt Q86SQ4)",1.07
"GRPR (Homo sapiens, UniProt P30550)",0.79 fold
"GRM4 (Homo sapiens, UniProt Q14833)",0.86 fold
"HCAR3 (Homo sapiens, UniProt P49019)",1.05 fold
"GPRC5C (Homo sapiens, UniProt Q9NQ84)",0.67
"CCKBR (Homo sapiens, UniProt P32239)",0.97
"Probable G-protein coupled receptor 162 (GPR162, Homo sapiens, UniProt Q16538)",0.87
"QRFPR (Homo sapiens, UniProt Q96P65)",0.65
"CHRM2 (Homo sapiens, UniProt P08172)",0.99

# Block 3
# Cell line: mouse MPNST tumor cells
# Technique: high-content immunofluorescence imaging
# Measured: nuclear SOX9
# Tested at: 10 µM
# Time: 12 h
# Notes: mean of 2 replicates
# Reference: DMSO control
# Direction: higher = more nuclear SOX9
SMILES,nuclear SOX9 intensity
C[C@]1(Cn2ccnn2)[C@H](C(=O)O)N2C(=O)C[C@H]2S1(=O)=O,98.2 % of DMSO
C(=C\c1ccccc1)/CN1CCN(C(c2ccccc2)c2ccccc2)CC1,120 % of DMSO
CC(C)(C)c1ccc2cc(C#N)c(C#N)cc2c1,152 % of DMSO
C[C@@H]1CCC[C@H](C)N1NC(=O)c1ccc(Cl)c(S(N)(=O)=O)c1,107 % of DMSO
Cc1cc(Nc2cc(Cl)nc(Oc3ccc([N+](=O)[O-])cc3)n2)n[nH]1,104 % of DMSO
COCCCOc1cc(C[C@@H](C[C@H](N)[C@@H](O)C[C@H](C(=O)NCC(C)(C)C(N)=O)C(C)C)C(C)C)ccc1OC,124 % of DMSO and 88.8 % of DMSO and 99.5 % of DMSO
CCC(CC)Nc1nc(C)c(-c2ccc(OC(F)(F)F)cc2OC)nc1OC,106 % of DMSO
OCCN(CCO)c1nc(N2CCCCC2)c2nc(N(CCO)CCO)nc(N3CCCCC3)c2n1,97.5 % of DMSO and 97.3 % of DMSO
CN(C(=O)C(Cl)Cl)c1ccc(OC(=O)c2ccco2)cc1,91.5 % of DMSO

# Block 4
# SMILES: CC1=C(C#N)C(c2ccc3c(c2)c(NC(=O)c2ccccc2C)nn3C)C(C#N)=C(C)N1
# Effect on: cell-free assay
# Technique: competition with immobilised ligand
# Tested at: 1 µM
target,remaining binding [%]
"MET (Homo sapiens, UniProt P08581, M1250T)",27
"CDC42BPB (Homo sapiens, UniProt Q9Y5S2)",100
"MYLK4 (Homo sapiens, UniProt Q86YV6)",100
"PIK3CA (Homo sapiens, UniProt P42336, E542K)",91
"SIK2 (Homo sapiens, UniProt Q9H0K1)",93
"NEK5 (Homo sapiens, UniProt Q6P3R8)",100
"SRPK1 (Homo sapiens, UniProt Q96SB4)",89
"AKT2 (Homo sapiens, UniProt P31751)",100
"MAP3K19 (Homo sapiens, UniProt Q56UN5)",82
"EGFR (Homo sapiens, UniProt P00533, del747-750/T751S)",78
"FLT3 (Homo sapiens, UniProt P36888, D835H)",99
"STK36 (Homo sapiens, UniProt Q9NRP7)",87
"CSNK2A2 (Homo sapiens, UniProt P19784)",100
"NEK3 (Homo sapiens, UniProt P51956)",94
"MARK4 (Homo sapiens, UniProt Q96L34)",94
"ERN1 (Homo sapiens, UniProt O75460)",84
"MYLK2 (Homo sapiens, UniProt Q9H1R3)",89
"BMP2K (Homo sapiens, UniProt Q9NSY1)",100
"Non-receptor tyrosine-protein kinase TYK2, JH1 (TYK2, Homo sapiens, UniProt P29597)",88
"Aurora kinase C (AURKC, Homo sapiens, UniProt Q9UQB9)",97
"PRKD3 (Homo sapiens, UniProt O94806)",72
"STK10 (Homo sapiens, UniProt O94804)",68
"MAP3K1 (Homo sapiens, UniProt Q13233)",51
"MAP4K2 (Homo sapiens, UniProt Q12851)",99
"WNK3 (Homo sapiens, UniProt Q9BYP7)",82

# Excerpt of the above (block 3):
SMILES,nuclear SOX9 intensity
C[C@]1(Cn2ccnn2)[C@H](C(=O)O)N2C(=O)C[C@H]2S1(=O)=O,98.2 % of DMSO
C(=C\c1ccccc1)/CN1CCN(C(c2ccccc2)c2ccccc2)CC1,120 % of DMSO
CC(C)(C)c1ccc2cc(C#N)c(C#N)cc2c1,152 % of DMSO
C[C@@H]1CCC[C@H](C)N1NC(=O)c1ccc(Cl)c(S(N)(=O)=O)c1,107 % of DMSO
Cc1cc(Nc2cc(Cl)nc(Oc3ccc([N+](=O)[O-])cc3)n2)n[nH]1,104 % of DMSO
COCCCOc1cc(C[C@@H](C[C@H](N)[C@@H](O)C[C@H](C(=O)NCC(C)(C)C(N)=O)C(C)C)C(C)C)ccc1OC,124 % of DMSO and 88.8 % of DMSO and 99.5 % of DMSO
CCC(CC)Nc1nc(C)c(-c2ccc(OC(F)(F)F)cc2OC)nc1OC,106 % of DMSO
OCCN(CCO)c1nc(N2CCCCC2)c2nc(N(CCO)CCO)nc(N3CCCCC3)c2n1,97.5 % of DMSO and 97.3 % of DMSO
CN(C(=O)C(Cl)Cl)c1ccc(OC(=O)c2ccco2)cc1,91.5 % of DMSO
